Measurements pooled from the literature.
Lines come from different studies, so protocols differ.
Target: Dual serine/threonine and tyrosine protein kinase (DSTYK, Homo sapiens, UniProt Q6XUX3)

| Structure (SMILES) | assay | setting | scale | endpoint | result |
| --- | --- | --- | --- | --- | --- |
| NC(=O)C[C@H]1CCc2sc3ncnc(O[C@H]4CC[C@H](N5CCOCC5)CC4)c3c21 | enzyme activity, inhibitor | 10 µM |  | inhibition | 3% |
| Cc1cnc2nc1Nc1cccc(c1)COC/C=C/COCc1cc(ccc1OCCN1CCOCC1)N2 | binding, competition with immobilised ligand | 0.1 µM |  | remaining binding | 93% |
| COc1cc(Nc2nccc(-c3cnn4nc(OC)ccc34)n2)cc(C(F)(F)F)c1 | binding, competition with immobilised ligand | 1 µM |  | remaining binding | 92% |
| CNC1C[S+]2CC[S+]3CC[S+](C1)[Ru-4]321([N]=C=S)[n]2c3ccc(OC)cc3c3c4c(c5cc(F)c[n+]1c5c32)C(=O)NC4=O (stereo not shown) | KinomeScan | 0.1 µM | relative to: untreated | remaining binding | 74% |
| C=CC(=O)N1CCCC(n2c(=O)c3ncccc3n(Cc3ccc(Oc4ccccc4)cc3)c2=O)C1 (stereo not shown) | cell-free assay, competition with immobilised ligand | 1 µM |  | remaining binding | 74% |
| Nc1ncc(-c2cc(-c3cnn(CC(F)(F)F)c3)ncc2F)nc1C(=O)NC1CNCC(F)C1 (stereo not shown) | enzyme activity | 1 µM | relative to: DMSO control | remaining activity | 95% |
| Nc1ncc2c(n1)-c1c([nH]c3ccc(C4=CCOCC4)cc13)CCC2 | binding, competition with immobilised ligand | 1 µM |  | remaining binding | 6.9% |
| CCn1cc(C(=O)O)c(=O)c2c(N)c(F)c(NC3CCCCC3)cc21 | kinase activity | 0.1 µM, with: ATP at Km |  | inhibition | 7.6% |
| CC(C)=CC1OC(C)(C)C2C=C3C(=O)C(Cl)=CC(O)C3C3C(O)C4OC4C(=O)C132 (stereo not shown) | cell-free assay, competition with immobilised ligand | 10 µM |  | remaining binding | 56% |
| Cc1ccc(-c2c(/C=C(\C#N)C(=O)NC(C)C)n(CCCO)c3ncnc(N)c23)cc1 | enzyme activity, inhibitor | 1 µM |  | remaining activity | 87% |
| COc1cc(Nc2nc(C)cc(-c3cnn4nc(OC)ccc34)n2)cc(C(F)(F)F)c1 | binding, competition with immobilised ligand | 1 µM |  | remaining binding | 79% |
| CCN1CCN(Cc2ccc(C(=O)Nc3ccc(C)c(NCc4cnc5[nH]ccc5c4OC)c3)cc2C(F)(F)F)CC1 | binding, competition with immobilised ligand | 1 µM |  | remaining binding | 100% |
| C=CC(=O)N1CCc2ccc(-n3c(=O)ccc4cnc5ccc(-c6cnn(C)c6)cc5c43)cc21 | KINOMEscan | 1 µM | relative to: DMSO control | remaining binding | 100% |
| COc1c(Cl)cccc1Nc1c(-c2ccncc2C#C[C@@]2(C)CCCN2C(=O)/C=C/CN(C)C)[nH]c2c1C(=O)NCC2 | binding, competition with immobilised ligand | 3 µM |  | remaining binding | 95% |
| NC(=O)[C@@H](O)C[C@H]1CCc2sc3ncnc(O[C@H]4CC[C@H](N5CCOCC5)CC4)c3c21 | enzyme activity, inhibitor | 10 µM |  | inhibition | 1% |
| CNC(=O)C1CCN(c2cc(C)c(F)cc2NC(=O)c2ccc(-c3cc(O)ccc3C)c(C)c2)CC1 | binding, competition with immobilised ligand | 1 µM |  | remaining binding | 69% |

Some of these lines once more:
| Structure (SMILES) | assay | setting | scale | endpoint | result |
| --- | --- | --- | --- | --- | --- |
| CNC1C[S+]2CC[S+]3CC[S+](C1)[Ru-4]321([N]=C=S)[n]2c3ccc(OC)cc3c3c4c(c5cc(F)c[n+]1c5c32)C(=O)NC4=O (stereo not shown) | KinomeScan | 0.1 µM | relative to: untreated | remaining binding | 74% |
| Nc1ncc2c(n1)-c1c([nH]c3ccc(C4=CCOCC4)cc13)CCC2 | binding, competition with immobilised ligand | 1 µM |  | remaining binding | 6.9% |
